Results gathered from unrelated publications.
Lines come from different studies, so protocols differ. Several values in a cell are separate wells, animals, samples, runs or records. ± gives the spread as reported.
T1: G-quadruplex DNA, parallel G-quadruplex (Homo sapiens); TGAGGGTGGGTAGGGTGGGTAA

SMILES	target or system	assay	system	conditions	scale	measurement	value
Cc1ncsc1-c1ccc(C(C)NC(=O)C2CC(O)CN2C(=O)C(NC(=O)CCCCCCCCCCN2CCCC(Nc3ncc(Cl)c(Nc4ccccc4S(=O)(=O)C(C)C)n3)C2)C(C)(C)C)cc1 (stereo not drawn)	22Rv1	RNA-seq, refers to: RORC mRNA	–	concentration not given	relative to: DMSO	log2 fold change	-1.67
CN(C)c1ccc(C2=C/C(=C/C=C/C3=[N+](C)c4ccccc4C3(C)C)c3ccccc3O2)cc1	T1, G-quadruplex DNA, parallel G-quadruplex (Homo sapiens)	fluorescence turn-on	–	absorption red shift	–	binding	binds
O=C(Nc1cnccc1-c1ccc([18F])nc1)c1ccnc(NC(=O)C2CC2)c1	–	–	mice, transgenic, GSK-3β, early-stage, bladder	intravenous, dose not given, 120 min	–	SUV	0.317
C[N+](C)(C)CCOC(N)=O	Chrnd/Chrna1/Chrne (Mus musculus, UniProt P02716+P04756+P20782, G173K/S470W)	ligand binding, agonist, single-channel kinetics	–	chain K	relative to: wild type over mutant	affinity ratio	1.3
COC(=O)Cc1cc2c(cc1C(=O)c1ccccc1I)OCO2	Gria2 (Rattus norvegicus, UniProt P19491)	glutamate-evoked current, whole-cell patch clamp	HEK-293T	concentration not given, glutamate alone after washout, added: glutamate	–	current amplitude after recovery	1240 ± 64 pA
CC[C@H](C)[C@H](NC(=O)[C@H](CO)NC(=O)[C@H](CO)NC(=O)[C@H](CCC(=O)O)NC(=O)[C@H](CCC(=O)O)NC(=O)[C@H](CCCCN)NC(=O)[C@H](CO)NC(=O)[C@@H](NC(=O)[C@H](CO)NC(=O)[C@H](CC(C)C)NC(=O)[C@H](Cc1ccccc1)NC(=O)[C@H](CCCNC(=N)N)NC(=O)[C@H](C)NC(=O)[C@H](Cc1ccccc1)NC(=O)[C@H](Cc1ccccc1)NC(=O)[C@@H]1CCCN1C(=O)[C@H](CC(C)C)NC(=O)[C@H](C)NC(=O)[C@H](CCCCN)NC(=O)CNC(=O)[C@H](CCC(N)=O)NC(=O)[C@H](CCC(N)=O)NC(=O)[C@H](CC(=O)O)NC(=O)[C@H](CC(N)=O)NC(=O)[C@@H]1CCCN1C(=O)[C@H](Cc1ccc(O)cc1)NC(=O)[C@H](C)NC(=O)[C@@H](N)CCSC)C(C)C)C(=O)N[C@@H](CCCCN)C(=O)N[C@@H](CO)C(=O)N1CCC[C@H]1C(=O)N[C@@H](CO)C(=O)N1CCC[C@H]1C(=O)N[C@@H](CC(=O)O)C(=O)N[C@@H](Cc1c[nH]cn1)C(=O)O	uncharacterized protein (Microcystis aeruginosa MRC, UniProt B2G3C9)	isothermal titration calorimetry	–	concentration not given, pH 8.0, 25 °C	–	binding stoichiometry	1.12 ± 0.02
CCCCCCCCCCCCC/C=C/C=O	Condensin complex subunit 1 (Homo sapiens, UniProt Q15021)	competitive isoTOP-ABPP, refers to: NCAPD2 cysteine peptide	Ramos soluble proteome	100 µM, added: iodoacetamide probe	relative to: DMSO over compound-treated, higher = stronger cysteine blockade	isoTOP-ABPP competition ratio	1
Fc1ccc(Nc2nc(NC3CCCCC3)c3ccccc3n2)cc1F	ADRB2 (Homo sapiens, UniProt P07550, N148A)	β-arrestin2 recruitment, antagonist, BRET	–	mutant N148A	relative to: isoprenaline maximal response	maximal inhibition	-0.3%
O=C1c2sc(-c3ccc(N4CCC(CO)CC4)nc3F)nc2CCN1c1cccnc1	TAR DNA-binding protein 43, aggregated (TARDBP, Homo sapiens, UniProt Q13148)	radioligand binding	human, FTLD-TDP type B sarkosyl-insoluble extract	4.94 nM	–	specific binding	0.727 nM and 0.805 nM
Cc1cn([C@H]2C[C@H](n3cc([C@]4(O)CC[C@H]5[C@@H]6CCc7cc(O)ccc7[C@H]6CC[C@@]54C)nn3)[C@@H](CO)O2)c(=O)[nH]c1=O	MDM2 (Homo sapiens, UniProt Q00987)	thermal stability, DSF	–	30 µM	–	ΔTm	3.41 °C
Cc1nn(-c2cccc(N)c2)c(=O)c2cnc(Nc3ccc(N4CCNCC4)cc3)nc12	EPHA1 (Homo sapiens, UniProt P21709)	kinase activity, inhibitor, SelectScreen kinase profiling	–	–	–	IC50	2.06 µM
CC(C)[C@@H]1NC(=O)[C@H](Cc2ccccc2)NC(=O)CSC[C@@H](C(N)=O)NC(=O)[C@H](CCC(=O)O)NC(=O)[C@H](CO)NC(=O)[C@H](Cc2c[nH]c3cccc(Cl)c23)NC(=O)[C@H](C2CCCCC2)NC(=O)[C@H](C(C)C)NC(=O)[C@H](Cc2ccc(O)cc2)NC(=O)[C@H](CC(=O)O)NC(=O)[C@H](Cc2c[nH]c3ccccc23)NC(=O)[C@H](Cc2ccc(N)nc2)NC(=O)[C@H](Cc2c[nH]c3ccc(Cl)cc23)NC(=O)[C@H](CCC(=O)O)NC1=O	Interleukin-1 receptor-like 2 (IL1RL2, Homo sapiens, UniProt Q9HB29)	reporter gene (SEAP), inhibitor, HEK-Blue IL-36R reporter	HEK-Blue IL-36R cells	0.005 µM, 6 h, added: IL-36γ 0.03 ng/mL	–	remaining activity	96.8%
C=C(NC(=O)c1csc(-c2nc3c(cc2O)-c2nc(cs2)C(=O)NC(C(C)O)C(=O)NC(=C(C)OC)c2nc(cs2)C(=O)NC2c4nc(cs4)C(=O)NC(COC(=O)c4c5c6c(cccc6n4O)COC(=O)C(OC4CC(C)(O)C(N(C)C)C(C)O4)C2OC5)c2nc-3cs2)n1)C(N)=O (stereo not drawn)	–	–	cynomolgus monkey, male, plasma	intravenous infusion, 9 mg/kg single dose	–	MRT(0-last)	1.87 h
[2H]C([2H])([18F])Oc1cc(C(=O)OCC2CCN(CCCC)CC2)ccc1N	–	5-HT4 receptor binding, PET	rhesus monkey (Macaca mulatta), brain hippocampus	dose not given, baseline scan, unit not given	relative to: cerebellum reference region	binding potential BPND	0.58 ± 0.12
Cn1c(=O)n(C2CCC(=O)NC2=O)c2ccc(C3CCN(CC(=O)Nc4cccc(CS(=O)(=O)N5CC[C@H](Nc6cccc(-c7sc(C(=O)O)c(OCC(=O)O)c7Cl)c6)CC5(C)C)c4)CC3)cc21 (stereo partly drawn)	Tyrosine-protein phosphatase non-receptor type 2 (Ptpn2, Mus musculus, UniProt Q06180)	degrader, Western blot	B16-F10	10 µM, added: DMSO pretreatment	–	remaining protein	0%
CC(=O)N[C@@H](CC(=O)O)C(=O)N[C@@H](CCC(=O)O)C(=O)N[C@H](C(=O)N[C@@H](CC(=O)O)C(=O)COC(=O)c1c(C)cccc1C)C(C)C	Caspase-7 (CASP7, Homo sapiens, UniProt P55210)	enzyme activity, inhibitor	–	–	–	kinact/KI	549000 M⁻¹ s⁻¹
COC1CN([C@H]2CC[C@H]([C@@]3(C)Oc4c(Cl)cc(C(=O)NCc5c(SC)cc(C)[nH]c5=O)c(C)c4O3)CC2)C1	–	RNA-seq, refers to: NBEA mouse homolog	mouse, HT-1376 xenograft, whole blood	dose not given	relative to: vehicle	log2 fold change	1.18
C=CC(=O)Nc1cccc(Cn2ncc3cnc(Nc4cnn(CCOC)c4)nc32)c1	INSR human	binding, KINOMEscan	–	100 nM	lower = stronger binding	percent of control	87%
CN(C)c1ccc2c(c1)C(=O)N(c1ccc(S(N)(=O)=O)cc1)C2=O	CA2 (Bos taurus, UniProt P00921)	binding	–	2 µM, pH 7.2	relative to: without protein	fluorescence turn-on	4.2 fold
Cc1ccc(-c2c[nH]nc2C(=O)NC2CC2)cc1	human kinase panel	binding, KINOMEscan	–	10000 nM, %Ctrl below 1	–	number of kinases hit	0
CCOC(=O)[C@](CC)(CCCSCCOCCOCCN)NC(=O)c1ccc(C2CC2)c(Cc2ccc(F)cc2)n1	CNR2 (Homo sapiens, UniProt P34972)	cAMP, agonist	–	–	–	Emax	91%
